{"data": "Experimental data from different studies", "note": "A part holds a random share of what one study measured. Several values in a cell are separate wells, animals, samples, runs or records.", "sequence of UniProt P19784 (whole entry, looked up)": "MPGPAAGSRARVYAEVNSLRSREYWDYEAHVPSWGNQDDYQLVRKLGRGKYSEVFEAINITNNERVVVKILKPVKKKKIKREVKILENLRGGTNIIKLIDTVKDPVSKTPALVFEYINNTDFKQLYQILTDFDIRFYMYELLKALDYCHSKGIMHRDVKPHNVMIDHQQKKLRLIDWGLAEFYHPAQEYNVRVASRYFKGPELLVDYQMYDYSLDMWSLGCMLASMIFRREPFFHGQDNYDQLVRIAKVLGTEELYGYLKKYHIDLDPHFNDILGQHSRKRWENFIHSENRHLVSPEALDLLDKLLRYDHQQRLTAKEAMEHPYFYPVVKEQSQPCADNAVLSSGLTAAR", "sequence of UniProt P42336 (whole entry, unmodified, looked up)": "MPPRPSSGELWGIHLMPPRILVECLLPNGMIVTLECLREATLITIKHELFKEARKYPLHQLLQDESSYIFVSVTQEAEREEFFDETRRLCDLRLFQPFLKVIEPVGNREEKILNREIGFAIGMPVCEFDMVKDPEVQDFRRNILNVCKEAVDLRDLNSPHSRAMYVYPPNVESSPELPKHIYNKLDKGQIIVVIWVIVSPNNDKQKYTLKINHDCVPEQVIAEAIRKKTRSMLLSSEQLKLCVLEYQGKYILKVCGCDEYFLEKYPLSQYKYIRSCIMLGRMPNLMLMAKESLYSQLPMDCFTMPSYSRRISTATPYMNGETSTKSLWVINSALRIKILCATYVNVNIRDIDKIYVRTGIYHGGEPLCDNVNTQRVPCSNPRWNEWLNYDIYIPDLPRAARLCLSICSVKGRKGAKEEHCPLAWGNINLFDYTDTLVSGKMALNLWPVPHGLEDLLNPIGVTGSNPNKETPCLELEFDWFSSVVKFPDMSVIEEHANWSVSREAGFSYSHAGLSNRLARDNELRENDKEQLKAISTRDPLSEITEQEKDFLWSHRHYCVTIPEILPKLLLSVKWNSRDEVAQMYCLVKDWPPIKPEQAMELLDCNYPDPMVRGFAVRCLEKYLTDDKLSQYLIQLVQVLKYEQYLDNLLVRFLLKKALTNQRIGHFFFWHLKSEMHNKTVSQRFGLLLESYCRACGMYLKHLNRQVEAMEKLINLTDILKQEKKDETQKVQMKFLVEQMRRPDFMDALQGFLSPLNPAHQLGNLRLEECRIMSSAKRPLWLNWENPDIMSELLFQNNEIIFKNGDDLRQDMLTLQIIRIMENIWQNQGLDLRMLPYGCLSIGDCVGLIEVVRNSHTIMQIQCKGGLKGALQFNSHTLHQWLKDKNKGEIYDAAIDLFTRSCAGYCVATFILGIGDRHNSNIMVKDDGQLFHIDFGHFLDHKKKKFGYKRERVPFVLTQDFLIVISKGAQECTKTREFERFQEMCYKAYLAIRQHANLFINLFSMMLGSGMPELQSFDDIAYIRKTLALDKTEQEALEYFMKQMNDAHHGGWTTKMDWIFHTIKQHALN"}
{"data": "Study 1", "cell line": "mouse MPNST tumor cells", "technique": "high-content immunofluorescence imaging", "item": "nuclear SOX9", "tested at": "10 µM", "time": "12 h", "setting": "mean of 2 replicates", "reference": "DMSO control", "reading": "higher = more nuclear SOX9"}
{"Compound": "Cc1cc(CCC[C@H](CC(=O)NO)C(=O)N[C@H](C(=O)N[C@H](C)c2ccccc2)C(C)(C)C)ccc1-c1ccccc1", "nuclear SOX9 intensity": "125 % of DMSO"}
{"Compound": "CS(=O)(=O)Nc1ccc([N+](=O)[O-])cc1Oc1ccccc1", "nuclear SOX9 intensity": "108 % of DMSO"}
{"Compound": "OCCN1CCN(CCCN2c3ccccc3C=Cc3ccccc32)CC1", "nuclear SOX9 intensity": "167 % of DMSO"}
{"Compound": "Cc1cc2c(s1)Nc1ccccc1N=C2N1CCN(C)CC1", "nuclear SOX9 intensity": "118 % of DMSO and 108 % of DMSO"}
{"Compound": "CC(=O)O[C@]1(C(C)=O)CC[C@H]2[C@@H]3C=C(Cl)C4=CC(=O)CC[C@]4(C)[C@H]3CC[C@@]21C", "nuclear SOX9 intensity": "96.2 % of DMSO"}
{"data": "Study 2", "Structure (SMILES)": "O=S(=O)(NC1CCC(c2cc(F)ccc2F)(S(=O)(=O)c2ccc(Cl)cc2)CC1)C(F)(F)F (stereo not shown)", "technique": "competition with immobilised ligand", "tested at": "1 µM"}
{"target": "Ephrin type-A receptor 8 (EPHA8, Homo sapiens, UniProt P29322)", "assay": "cell-free assay", "remaining binding": "100%"}
{"target": "Aurora kinase C (AURKC, Homo sapiens, UniProt Q9UQB9)", "assay": "cell-free assay", "remaining binding": "94%"}
{"target": "Mitogen-activated protein kinase kinase kinase 4 (MAP3K4, Homo sapiens, UniProt Q9Y6R4)", "assay": "cell-free assay", "remaining binding": "99%"}
{"target": "Ephrin type-A receptor 7 (EPHA7, Homo sapiens, UniProt Q15375)", "assay": "cell-free assay", "remaining binding": "100%"}
{"target": "Serine/threonine-protein kinase 16 (STK16, Homo sapiens, UniProt O75716)", "assay": "cell-free assay", "remaining binding": "97%"}
{"target": "Dual specificity mitogen-activated protein kinase kinase 1 (MAP2K1, Homo sapiens, UniProt Q02750)", "assay": "cell-free assay", "remaining binding": "100%"}
{"target": "Hepatocyte growth factor receptor (MET, Homo sapiens, UniProt P08581, M1250T)", "assay": "cell-free assay", "remaining binding": "84%"}
{"target": "Epidermal growth factor receptor (EGFR, Homo sapiens, UniProt P00533, L858R)", "assay": "cell-free assay", "remaining binding": "100%"}
{"target": "Casein kinase II subunit alpha' (CSNK2A2, Homo sapiens, UniProt P19784)", "assay": "cell-free assay", "remaining binding": "99%"}
{"target": "Serine/threonine-protein kinase 36 (STK36, Homo sapiens, UniProt Q9NRP7)", "assay": "cell-free assay", "remaining binding": "100%"}
{"target": "Mitogen-activated protein kinase kinase kinase 1 (MAP3K1, Homo sapiens, UniProt Q13233)", "assay": "cell-free assay", "remaining binding": "100%"}
{"target": "Receptor-type tyrosine-protein kinase FLT3, autoinhibited (FLT3, Homo sapiens, UniProt P36888)", "assay": "cell-free assay", "remaining binding": "100%"}
{"target": "Epidermal growth factor receptor (EGFR, Homo sapiens, UniProt P00533, del747-750/T751S)", "assay": "cell-free assay", "remaining binding": "100%"}
{"target": "Phosphatidylinositol 4,5-bisphosphate 3-kinase catalytic subunit alpha isoform (PIK3CA, Homo sapiens, UniProt P42336, Q546K)", "assay": "cell-free assay", "remaining binding": "91%"}
{"target": "Serine/threonine-protein kinase MRCK beta (CDC42BPB, Homo sapiens, UniProt Q9Y5S2)", "assay": "cell-free assay", "remaining binding": "100%"}
{"target": "Casein kinase I isoform delta (CSNK1D, Homo sapiens, UniProt P48730)", "assay": "cell-free assay", "remaining binding": "87%"}
{"target": "Myotonin-protein kinase (DMPK, Homo sapiens, UniProt Q09013)", "assay": "cell-free assay", "remaining binding": "100%"}
{"target": "Serine/threonine-protein kinase Nek3 (NEK3, Homo sapiens, UniProt P51956)", "assay": "cell-free assay", "remaining binding": "81%"}
{"target": "Tyrosine-protein kinase TXK (TXK, Homo sapiens, UniProt P42681)", "assay": "binding", "remaining binding": "99%"}
{"target": "MAP/microtubule affinity-regulating kinase 4 (MARK4, Homo sapiens, UniProt Q96L34)", "assay": "cell-free assay", "remaining binding": "100%"}
{"target": "Proto-oncogene tyrosine-protein kinase Src (SRC, Homo sapiens, UniProt P12931)", "assay": "cell-free assay", "remaining binding": "100%"}
{"target": "Myosin light chain kinase 2, skeletal/cardiac muscle (MYLK2, Homo sapiens, UniProt Q9H1R3)", "assay": "cell-free assay", "remaining binding": "91%"}
{"target": "Serine/threonine-protein kinase PLK1 (PLK1, Homo sapiens, UniProt P53350)", "assay": "cell-free assay", "remaining binding": "100%"}
{"target": "Cyclin-dependent kinase 17 (CDK17, Homo sapiens, UniProt Q00537)", "assay": "cell-free assay", "remaining binding": "100%"}
{"target": "Mitogen-activated protein kinase kinase kinase 6 (MAP3K6, Homo sapiens, UniProt O95382)", "assay": "cell-free assay", "remaining binding": "82%"}
{"data": "Study 3", "host": "mouse", "sample": "microsomes or S9", "tested at": "2 µM", "time": "0.5 h"}
{"Compound": "NCCO[C@H]1C[C@@H](O)C12CCN(CC(c1ccccc1)c1ccccc1)CC2", "remaining compound [%]": 74.9}
{"Compound": "CCN(CCn1cccn1)Cc1[nH]nc(C)c1Cl", "remaining compound [%]": 13}
{"Compound": "CCC(O)(c1ccccc1)c1cc(Cl)ccc1N (stereo not shown)", "remaining compound [%]": 22.4}
{"Compound": "O=C1Cc2cc(S(=O)(=O)N3CCN(C(c4ccccc4)c4ccccc4)CC3)cc3c2N1CCC3", "remaining compound [%]": 2.91}
{"data": "Study 4", "target": "Beta-1 adrenergic receptor (ADRB1, Homo sapiens, UniProt P08588)", "action": "antagonist", "sequence of UniProt P08588 (whole entry, looked up)": "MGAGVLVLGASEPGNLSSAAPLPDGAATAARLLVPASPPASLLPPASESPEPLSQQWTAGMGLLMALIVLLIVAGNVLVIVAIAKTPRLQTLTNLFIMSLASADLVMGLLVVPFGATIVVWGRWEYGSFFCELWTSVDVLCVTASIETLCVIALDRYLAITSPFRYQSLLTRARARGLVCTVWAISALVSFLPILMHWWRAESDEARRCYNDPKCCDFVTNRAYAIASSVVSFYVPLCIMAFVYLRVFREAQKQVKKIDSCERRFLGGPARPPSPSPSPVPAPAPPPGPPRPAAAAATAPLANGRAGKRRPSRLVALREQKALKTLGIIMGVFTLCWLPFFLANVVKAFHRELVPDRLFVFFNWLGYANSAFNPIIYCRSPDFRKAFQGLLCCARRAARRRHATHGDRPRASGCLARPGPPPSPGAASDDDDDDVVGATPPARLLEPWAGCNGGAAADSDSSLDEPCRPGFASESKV"}
{"SMILES": "Cc1c[nH]c(=O)n(CCCN2CCN(c3ccccc3OCC(F)(F)F)CC2)c1=O", "IC50": "≥ 100 µM"}
{"SMILES": "N[S+](=O)([O-])c1ccc(CCNCC2(O)CNCCOC2)cc1 (stereo not shown)", "IC50": "≥ 100 µM"}
{"SMILES": "CC(O)CN1CCN(c2cnc3ccccc3n2)CC1C (stereo not shown)", "IC50": "≥ 100 µM"}
{"SMILES": "CN(Cc1ccc2nonc2c1)Cc1ccccc1OCC(O)CN1CCCCC1 (stereo not shown)", "IC50": "≥ 100 µM"}
{"data": "Study 5", "target": "DNA polymerase theta, ATPase domain (POLQ, Homo sapiens, UniProt O75417)", "effect on": "enzyme activity", "action": "inhibitor", "tested at": "77 µM", "reference": "untreated", "sequence of UniProt O75417 (whole entry, unmodified, looked up)": "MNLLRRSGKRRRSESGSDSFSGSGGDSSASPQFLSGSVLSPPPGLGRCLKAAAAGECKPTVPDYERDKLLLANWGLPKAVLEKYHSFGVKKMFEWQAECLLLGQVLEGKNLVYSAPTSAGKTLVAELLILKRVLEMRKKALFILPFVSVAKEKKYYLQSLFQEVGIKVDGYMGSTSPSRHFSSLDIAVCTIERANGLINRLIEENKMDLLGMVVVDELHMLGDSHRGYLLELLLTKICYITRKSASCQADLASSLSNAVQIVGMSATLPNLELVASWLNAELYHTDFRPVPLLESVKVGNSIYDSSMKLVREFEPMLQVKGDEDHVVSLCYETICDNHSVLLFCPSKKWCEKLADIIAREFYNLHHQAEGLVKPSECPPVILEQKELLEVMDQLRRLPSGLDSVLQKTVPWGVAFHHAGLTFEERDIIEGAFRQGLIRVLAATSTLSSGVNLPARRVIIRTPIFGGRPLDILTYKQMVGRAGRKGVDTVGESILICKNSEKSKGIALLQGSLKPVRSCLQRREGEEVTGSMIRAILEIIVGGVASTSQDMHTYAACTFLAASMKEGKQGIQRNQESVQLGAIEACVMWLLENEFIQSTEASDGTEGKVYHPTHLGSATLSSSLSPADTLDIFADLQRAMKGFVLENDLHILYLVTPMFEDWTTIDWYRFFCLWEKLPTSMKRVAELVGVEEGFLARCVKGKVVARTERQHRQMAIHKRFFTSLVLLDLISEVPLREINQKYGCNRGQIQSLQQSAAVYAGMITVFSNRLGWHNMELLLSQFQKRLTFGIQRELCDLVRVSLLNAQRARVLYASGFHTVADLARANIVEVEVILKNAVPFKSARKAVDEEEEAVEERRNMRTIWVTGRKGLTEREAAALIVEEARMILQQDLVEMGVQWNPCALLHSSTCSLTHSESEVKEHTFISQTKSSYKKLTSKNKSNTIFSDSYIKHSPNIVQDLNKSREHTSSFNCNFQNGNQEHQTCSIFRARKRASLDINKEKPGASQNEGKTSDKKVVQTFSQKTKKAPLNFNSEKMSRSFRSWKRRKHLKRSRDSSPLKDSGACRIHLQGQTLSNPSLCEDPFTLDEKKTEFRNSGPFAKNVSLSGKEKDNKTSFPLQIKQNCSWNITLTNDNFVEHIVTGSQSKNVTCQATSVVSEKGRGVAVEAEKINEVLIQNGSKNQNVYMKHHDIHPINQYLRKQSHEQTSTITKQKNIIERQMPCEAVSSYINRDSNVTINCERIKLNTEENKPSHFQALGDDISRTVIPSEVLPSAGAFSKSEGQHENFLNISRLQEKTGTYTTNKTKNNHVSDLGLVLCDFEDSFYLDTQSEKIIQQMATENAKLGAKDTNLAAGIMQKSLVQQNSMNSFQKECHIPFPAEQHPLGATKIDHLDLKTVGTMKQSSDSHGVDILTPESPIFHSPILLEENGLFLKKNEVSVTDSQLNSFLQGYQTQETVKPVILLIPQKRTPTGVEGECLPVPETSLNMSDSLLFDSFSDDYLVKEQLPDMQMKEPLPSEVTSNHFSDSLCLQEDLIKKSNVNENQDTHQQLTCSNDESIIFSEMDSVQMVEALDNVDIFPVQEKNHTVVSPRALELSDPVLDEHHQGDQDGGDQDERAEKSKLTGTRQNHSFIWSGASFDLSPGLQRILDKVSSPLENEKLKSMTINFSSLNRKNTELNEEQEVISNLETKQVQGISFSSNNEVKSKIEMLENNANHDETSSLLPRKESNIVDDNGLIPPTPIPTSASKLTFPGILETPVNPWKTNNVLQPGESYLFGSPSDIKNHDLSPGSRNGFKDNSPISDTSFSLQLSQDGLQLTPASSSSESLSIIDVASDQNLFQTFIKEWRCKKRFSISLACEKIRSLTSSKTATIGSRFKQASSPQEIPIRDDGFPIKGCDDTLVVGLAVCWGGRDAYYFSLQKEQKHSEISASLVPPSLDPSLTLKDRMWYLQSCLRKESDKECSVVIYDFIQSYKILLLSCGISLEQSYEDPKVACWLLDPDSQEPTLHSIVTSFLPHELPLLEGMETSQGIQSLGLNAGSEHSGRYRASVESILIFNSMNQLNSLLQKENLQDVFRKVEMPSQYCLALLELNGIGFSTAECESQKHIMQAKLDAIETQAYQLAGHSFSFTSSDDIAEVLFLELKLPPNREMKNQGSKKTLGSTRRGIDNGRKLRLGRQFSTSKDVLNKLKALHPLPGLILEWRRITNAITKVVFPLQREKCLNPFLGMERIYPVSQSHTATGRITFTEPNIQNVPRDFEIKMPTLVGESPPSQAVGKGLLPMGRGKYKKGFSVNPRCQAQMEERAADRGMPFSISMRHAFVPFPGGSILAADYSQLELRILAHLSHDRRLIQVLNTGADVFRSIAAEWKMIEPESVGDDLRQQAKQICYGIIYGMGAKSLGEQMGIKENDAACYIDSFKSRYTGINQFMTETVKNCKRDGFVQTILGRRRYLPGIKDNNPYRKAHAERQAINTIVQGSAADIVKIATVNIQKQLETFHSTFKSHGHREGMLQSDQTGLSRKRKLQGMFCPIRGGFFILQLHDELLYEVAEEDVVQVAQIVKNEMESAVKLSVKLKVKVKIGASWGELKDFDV"}
{"Structure (SMILES)": "COc1ccc(COc2cc3oc(=O)c4cc(C(C)O)ccc4c3cc2OC)cc1 (stereo not shown)", "remaining activity [%]": 98.4}
{"Structure (SMILES)": "CCN(CC)CCOC(=O)C(c1ccccc1)C1CCCCC1 (stereo not shown)", "remaining activity [%]": 101}
{"Structure (SMILES)": "Nc1ncnc2c1ncn2[C@@H]1O[C@H](COP(=O)(O)CP(=O)(O)OP(=O)(O)O)[C@@H](O)[C@H]1O", "remaining activity [%]": 102}
{"Structure (SMILES)": "Cc1c(Cn2c(C)nc3c(C(=O)O)cc(N4CCOCC4)cc32)cccc1C(F)(F)F", "remaining activity [%]": 103}
{"Structure (SMILES)": "Cc1nc2c([nH]1)c(=O)n(C)c(=O)n2Cc1ccco1", "remaining activity [%]": 106}
{"Structure (SMILES)": "C=C/C(C)=C/[C@@]1(C)SC(=O)C(C)=C1O", "remaining activity [%]": 100}
{"data": "Study 6", "target": "Calcium/calmodulin-dependent protein kinase type II subunit alpha (CAMK2A, Homo sapiens, UniProt Q9UQM7)", "effect on": "enzyme activity", "action": "inhibitor", "tested at": "10 µM", "sequence of UniProt Q9UQM7 (whole entry, looked up)": "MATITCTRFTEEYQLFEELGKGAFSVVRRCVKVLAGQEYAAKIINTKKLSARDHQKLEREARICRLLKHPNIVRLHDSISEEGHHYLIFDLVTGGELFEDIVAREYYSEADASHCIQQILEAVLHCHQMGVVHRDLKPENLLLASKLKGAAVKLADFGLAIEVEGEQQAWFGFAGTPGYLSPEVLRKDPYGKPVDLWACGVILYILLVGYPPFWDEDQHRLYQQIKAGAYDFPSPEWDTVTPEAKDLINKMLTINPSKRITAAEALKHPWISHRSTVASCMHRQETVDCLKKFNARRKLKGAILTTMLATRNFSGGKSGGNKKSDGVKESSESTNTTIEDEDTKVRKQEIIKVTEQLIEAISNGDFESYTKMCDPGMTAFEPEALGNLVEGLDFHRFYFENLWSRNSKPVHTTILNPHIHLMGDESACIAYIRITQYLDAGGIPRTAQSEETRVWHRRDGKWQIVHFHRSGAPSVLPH"}
{"SMILES": "CC1=C(C(=O)OC(C)C)C(c2cccc([N+](=O)[O-])c2)C(C(=O)OC2CN(C(c3ccccc3)c3ccccc3)C2)=C(N)N1 (stereo not shown)", "inhibition": "-7%"}
{"SMILES": "O=C(/C=C/c1ccc(O)c(O)c1)O[C@H](Cc1ccc(O)c(O)c1)C(=O)O", "inhibition": "-3%"}
{"SMILES": "O=Cc1ccc(O)cc1", "inhibition": "-14%"}
{"data": "Study 7", "SMILES": "O=C(Nc1cnn(-c2csc(C(=O)NC3COC3)c2)c1)Nc1c(F)cccc1Cl", "effect on": "enzyme activity", "tested at": "5 µM", "reference": "untreated control"}
{"target": "Casein kinase I isoform epsilon (CSNK1E, Homo sapiens, UniProt P49674)", "remaining activity [%]": 87.2}
{"target": "Ribosomal protein S6 kinase alpha-1 (RPS6KA1, Homo sapiens, UniProt Q15418)", "remaining activity [%]": 96}
{"target": "Mitogen-activated protein kinase kinase kinase kinase 2 (MAP4K2, Homo sapiens, UniProt Q12851)", "remaining activity [%]": 91}
{"target": "Epidermal growth factor receptor (EGFR, Homo sapiens, UniProt P00533)", "remaining activity [%]": 85.6}
{"target": "Dual specificity protein kinase CLK3 (CLK3, Homo sapiens, UniProt P49761)", "remaining activity [%]": 90.4}
